Experimental data from different studies.
Each line is one published result; not all experiments were run side by side. Numbers after ± are the reported error.
CYP2B6: Cytochrome P450 2B6 (CYP2B6, Homo sapiens, UniProt P20813)
UniProt P21554, sequence (whole entry, unmodified, looked up): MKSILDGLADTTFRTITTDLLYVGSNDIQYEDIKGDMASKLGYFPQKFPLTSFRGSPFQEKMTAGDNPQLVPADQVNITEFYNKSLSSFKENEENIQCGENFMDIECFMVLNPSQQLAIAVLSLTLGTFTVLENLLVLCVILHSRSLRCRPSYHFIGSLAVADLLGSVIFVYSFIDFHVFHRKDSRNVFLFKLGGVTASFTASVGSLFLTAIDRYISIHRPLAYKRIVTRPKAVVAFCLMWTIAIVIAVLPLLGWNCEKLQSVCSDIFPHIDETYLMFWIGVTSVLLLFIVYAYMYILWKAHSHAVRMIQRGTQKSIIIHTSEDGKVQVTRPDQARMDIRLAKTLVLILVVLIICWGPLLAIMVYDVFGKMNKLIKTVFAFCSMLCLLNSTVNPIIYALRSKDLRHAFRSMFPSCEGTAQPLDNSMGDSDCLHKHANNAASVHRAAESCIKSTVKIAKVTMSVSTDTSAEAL
UniProt P20813, sequence (whole entry, looked up): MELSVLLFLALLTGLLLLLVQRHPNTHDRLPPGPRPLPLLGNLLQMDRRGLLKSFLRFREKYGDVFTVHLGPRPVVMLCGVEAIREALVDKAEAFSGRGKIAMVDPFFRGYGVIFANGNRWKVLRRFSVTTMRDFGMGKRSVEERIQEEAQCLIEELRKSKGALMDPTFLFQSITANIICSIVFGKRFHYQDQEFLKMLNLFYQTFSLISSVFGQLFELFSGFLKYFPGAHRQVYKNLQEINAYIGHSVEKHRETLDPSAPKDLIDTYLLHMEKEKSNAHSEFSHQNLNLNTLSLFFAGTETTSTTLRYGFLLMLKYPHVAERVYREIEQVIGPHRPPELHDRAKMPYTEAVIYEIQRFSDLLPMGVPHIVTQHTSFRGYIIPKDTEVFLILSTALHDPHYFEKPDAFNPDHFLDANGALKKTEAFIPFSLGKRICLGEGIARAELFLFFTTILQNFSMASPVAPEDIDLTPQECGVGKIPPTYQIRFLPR
UniProt P13128, sequence (whole entry, looked up): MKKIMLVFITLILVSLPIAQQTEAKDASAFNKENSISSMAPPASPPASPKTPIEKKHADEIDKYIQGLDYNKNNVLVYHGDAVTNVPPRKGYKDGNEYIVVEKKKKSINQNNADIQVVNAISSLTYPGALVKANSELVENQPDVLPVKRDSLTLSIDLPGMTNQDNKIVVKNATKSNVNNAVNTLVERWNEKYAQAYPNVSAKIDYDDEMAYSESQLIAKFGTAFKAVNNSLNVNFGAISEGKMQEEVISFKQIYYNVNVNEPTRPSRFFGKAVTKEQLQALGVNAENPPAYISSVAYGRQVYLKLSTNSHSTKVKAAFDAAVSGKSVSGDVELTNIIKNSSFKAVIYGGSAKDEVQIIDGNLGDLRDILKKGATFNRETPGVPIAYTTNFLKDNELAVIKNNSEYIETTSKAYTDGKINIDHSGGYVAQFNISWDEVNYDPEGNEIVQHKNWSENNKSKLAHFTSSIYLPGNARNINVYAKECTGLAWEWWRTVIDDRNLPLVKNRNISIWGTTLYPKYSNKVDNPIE
UniProt P34972, sequence (whole entry, looked up): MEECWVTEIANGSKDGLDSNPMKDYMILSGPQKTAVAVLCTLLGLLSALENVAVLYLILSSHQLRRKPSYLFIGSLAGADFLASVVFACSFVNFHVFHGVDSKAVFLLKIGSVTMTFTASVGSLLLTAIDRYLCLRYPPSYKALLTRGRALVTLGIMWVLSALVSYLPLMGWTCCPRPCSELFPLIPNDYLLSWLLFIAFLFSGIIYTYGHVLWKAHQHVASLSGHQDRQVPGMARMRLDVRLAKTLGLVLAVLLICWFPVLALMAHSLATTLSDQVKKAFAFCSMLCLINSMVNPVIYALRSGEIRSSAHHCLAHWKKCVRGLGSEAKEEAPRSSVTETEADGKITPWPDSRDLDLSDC
UniProt Q01959, sequence (whole entry, looked up): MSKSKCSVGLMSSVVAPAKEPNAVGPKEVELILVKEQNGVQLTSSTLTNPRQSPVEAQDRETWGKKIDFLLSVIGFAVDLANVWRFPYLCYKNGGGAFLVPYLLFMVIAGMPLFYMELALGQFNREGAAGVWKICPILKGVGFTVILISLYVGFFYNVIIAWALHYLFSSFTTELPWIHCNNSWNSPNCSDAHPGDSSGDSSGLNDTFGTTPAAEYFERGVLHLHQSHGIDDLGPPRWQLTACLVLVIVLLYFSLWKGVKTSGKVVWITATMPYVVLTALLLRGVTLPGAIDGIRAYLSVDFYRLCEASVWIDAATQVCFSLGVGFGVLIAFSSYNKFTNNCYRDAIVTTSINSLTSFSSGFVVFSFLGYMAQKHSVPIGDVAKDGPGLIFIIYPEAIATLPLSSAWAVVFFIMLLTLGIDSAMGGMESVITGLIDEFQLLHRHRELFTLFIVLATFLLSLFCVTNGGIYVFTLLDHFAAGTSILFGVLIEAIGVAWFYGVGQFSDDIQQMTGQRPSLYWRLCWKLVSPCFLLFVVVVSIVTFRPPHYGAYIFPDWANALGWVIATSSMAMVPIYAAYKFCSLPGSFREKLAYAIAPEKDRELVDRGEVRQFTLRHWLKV
UniProt P40337, sequence (whole entry, looked up): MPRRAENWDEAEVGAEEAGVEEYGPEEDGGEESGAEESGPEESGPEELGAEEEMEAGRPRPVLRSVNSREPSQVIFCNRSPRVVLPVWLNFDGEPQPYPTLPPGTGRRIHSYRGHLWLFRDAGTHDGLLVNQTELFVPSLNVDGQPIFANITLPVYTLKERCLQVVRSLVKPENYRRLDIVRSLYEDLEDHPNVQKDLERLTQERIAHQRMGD
UniProt P30872, sequence (whole entry, looked up): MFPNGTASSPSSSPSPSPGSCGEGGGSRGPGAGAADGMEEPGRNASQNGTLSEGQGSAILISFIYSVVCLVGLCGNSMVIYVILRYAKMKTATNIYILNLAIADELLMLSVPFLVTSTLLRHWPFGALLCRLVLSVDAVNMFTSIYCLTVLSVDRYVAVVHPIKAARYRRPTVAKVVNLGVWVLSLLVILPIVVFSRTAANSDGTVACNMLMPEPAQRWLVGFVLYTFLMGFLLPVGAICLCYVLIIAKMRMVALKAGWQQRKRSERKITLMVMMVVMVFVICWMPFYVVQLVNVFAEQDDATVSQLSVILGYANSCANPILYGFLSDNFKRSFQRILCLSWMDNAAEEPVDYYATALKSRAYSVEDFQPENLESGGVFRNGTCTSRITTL
UniProt P9WNC1, sequence (whole entry, looked up): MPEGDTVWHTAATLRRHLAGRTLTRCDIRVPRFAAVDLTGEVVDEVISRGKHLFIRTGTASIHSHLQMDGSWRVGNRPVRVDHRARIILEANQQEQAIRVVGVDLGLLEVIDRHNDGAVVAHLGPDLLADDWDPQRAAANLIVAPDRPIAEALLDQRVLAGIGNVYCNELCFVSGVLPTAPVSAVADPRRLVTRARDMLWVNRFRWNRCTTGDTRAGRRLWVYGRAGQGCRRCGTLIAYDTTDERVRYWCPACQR

CSCC[C@H](NC(=O)[C@@H]1CSSC[C@H](NC(=O)[C@H](CCCCN)NC(=O)[C@H](Cc2ccc(O)cc2)NC(=O)CNC(=O)[C@@H](N)CC(C(=O)O)C(=O)O)C(=O)N[C@@H](C(C)C)C(=O)N[C@H](Cc2c[nH]c3ccccc23)C(=O)N[C@@H](CCCCN)C(=O)N[C@@H]([C@@H](C)O)C(=O)N1)C(=O)N1C[C@H](O)C[C@H]1C(=O)N[C@@H](C)C(=O)O gave an EC50 of 2900 nM (SSTR1 (Homo sapiens, UniProt P30872); β-arrestin recruitment, agonist).
For CCCCCn1cc(C(=O)c2ccc3ccccc3c2)c2ccccc21, the EC50 was 135 nM (CNR1 (Homo sapiens, UniProt P21554, I267L); G protein activation, agonist, BRET).
CCC(CC)O[C@@H]1C=C(C(=O)O)C[C@H](NC(=N)N)[C@H]1NC(C)=O has a Ki of 570 ± 200 nM (neuraminidase (Influenza A virus, UniProt C3W6G3); DIANA; pH 7.4).
The Ki' of CCCCCc1cc(O)c2c(c1)OC(C)(C)C1=C2[C@@H](O)[C@@](C)(O)CC1 is reported as 216000 nM (rat intestinal maltase; inhibitor).
With CCCCCc1cc(O)c2c(c1)OC(C)(C)C1CCC(CO)=CC21 (centres unmarked) the Ki was 260 ± 41 nM (CYP2B6; enzyme activity, inhibitor; human liver microsomes; pH 7.4, unbound, fu,inc corrected, together with: bupropion).
For CCCCCn1cc(C(=O)c2ccc3c(c2)CC(C)(C)C3)c2ccccc21, the EC50 was 1290 nM (CNR1 (Homo sapiens, UniProt P21554); G protein activation, agonist, BRET).
The Ki of CCCCCc1cc(O)c2c(c1)OC(C)(C)c1cc(O)c(C)cc1-2 is reported as 181000 nM (rat intestinal maltase; inhibitor).
With CCC[C@H](C(=O)c1ccccc1)N1CCCC1 the Ki was 370 nM (SLC6A3 (Homo sapiens, UniProt Q01959); transporter uptake, inhibitor, radiometric).
CC(=O)NC1C(OC2C(CO)OC(OC3C(CO)OC(O)C(O)C3O)C(O)C2OC2(C(=O)O)CC(O)C(NC(C)=O)C(C(O)C(CO)OC3(C(=O)O)CC(O)C(NC(C)=O)C(C(O)C(CO)OC4(C(=O)O)CC(O)C(NC(C)=O)C(C(O)C(O)CO)O4)O3)O2)OC(CO)C(O)C1O (centres unmarked) has a Kd of 10 nM (hly, domain 4 (Listeria monocytogenes, UniProt P13128); binding).
CC1=CC(C)=[N+]2C1=Cc1ccc(CCC(=O)NCCOCCOCCOCCOCC(=O)N[C@H](C(=O)N3C[C@H](O)C[C@H]3C(=O)NCc3ccc(-c4scnc4C)cc3)C(C)(C)C)n1[B-]2(F)F has a Kd of 2.99 nM (von Hippel-Lindau disease tumor suppressor, with elongin B/C (VHL, Homo sapiens, UniProt P40337); binding, TR-FRET; 270 min, together with: BODIPY FL VH032).
With CCOC(=O)C=CC(CC1CCNC1=O)NC(=O)C(CC(C)C)NC(=O)C(NC(=O)OCc1ccccc1)C(C)OC(C)(C)C (centres unmarked) the EC50 was under 10000 nM (Replicase polyprotein 1ab, main protease (rep, Human coronavirus NL63, UniProt P0C6X5); viral replication).
With CCCCCc1cc(O)cc2c1Oc1cc(O)cc(C(=O)CCCC)c1C(=O)O2 the Kd was 74 nM (Endonuclease 8 2 (nei2, Mycobacterium tuberculosis, UniProt P9WNC1); binding, surface plasmon resonance; GST-tagged wild-type protein).
The IC50 of CCCCCc1cc(O)c2c(c1)OC(C)(C)C1CCC(C)=CC21 (single isomer, unassigned; (-)) is reported as 430 ± 280 nM (CYP2B6; inhibitor; HEK293 overexpressing CYP2B6, recombinant microsomes; pH 7.4, corrected for incubation binding, together with: bupropion).
For CCCCCn1cc(C(=O)c2cccc3ccccc23)c2ccccc21, the EC50 was 20.9 nM (CNR2 (Homo sapiens, UniProt P34972); β-arrestin recruitment, agonist, BRET).

Some of these lines once more:
CC(=O)NC1C(OC2C(CO)OC(OC3C(CO)OC(O)C(O)C3O)C(O)C2OC2(C(=O)O)CC(O)C(NC(C)=O)C(C(O)C(CO)OC3(C(=O)O)CC(O)C(NC(C)=O)C(C(O)C(CO)OC4(C(=O)O)CC(O)C(NC(C)=O)C(C(O)C(O)CO)O4)O3)O2)OC(CO)C(O)C1O (centres unmarked) has a Kd of 10 nM (hly, domain 4 (Listeria monocytogenes, UniProt P13128); binding).
CC1=CC(C)=[N+]2C1=Cc1ccc(CCC(=O)NCCOCCOCCOCCOCC(=O)N[C@H](C(=O)N3C[C@H](O)C[C@H]3C(=O)NCc3ccc(-c4scnc4C)cc3)C(C)(C)C)n1[B-]2(F)F has a Kd of 2.99 nM (von Hippel-Lindau disease tumor suppressor, with elongin B/C (VHL, Homo sapiens, UniProt P40337); binding, TR-FRET; 270 min, together with: BODIPY FL VH032).
